# Assay results gathered from unrelated publications.
# Each line is one published result; not all experiments were run side by side. Values joined by “and” are separate records of one study, mostly repeats; a detail may differ. ± marks the error that the study gave.
# Mitogen-activated protein kinase 14: Mitogen-activated protein kinase 14 (Rattus norvegicus, UniProt P70618)
# CA2: Carbonic anhydrase 2 (CA2, Homo sapiens, UniProt P00918)
# CTSL: Procathepsin L (CTSL, Homo sapiens, UniProt P07711)
SMILES,target,assay,test system,setting,IC50
CN(C)CCCN1C(=O)CSC1c1ccc(Cl)cc1 (centres unmarked),"uncharacterized protein (Apis mellifera, UniProt A0A7M6W5G5)","enzyme activity, inhibitor, Ellman",,together with: 1 mM acetylthiocholine,4.5 µM
CC(C)C[C@H](NC(=O)[C@H](CC(C)C)NC(=O)[C@H](CCCNC(=N)N)NC(=O)[C@H](CC(C)C)NC(=O)[C@H](CCCCN)NC(=O)[C@@H]1CCCN1C(=O)[C@H](CCCNC(=N)N)NC(=O)[C@H](CCCCN)NC(=O)[C@H](CC(C)C)NC(=O)[C@H](CCCNC(=N)N)NC(=O)[C@H](Cc1ccccc1)NC(=O)[C@H](CCCCN)NC(=O)[C@H](CCCCN)NC(=O)[C@H](C)NC(=O)[C@@H](N)Cc1ccc(O)cc1)C(=O)N[C@@H](CCCCN)C(=O)O,Mitogen-activated protein kinase 14,"enzyme activity, inhibitor, fluorescence",,pH 7.4,1.46 µM
C[C@@H]1COCCN1c1nc(NCc2cccnc2C(F)(F)F)c2cccnc2n1,"Bile salt export pump (ABCB11, Homo sapiens, UniProt O95342)",inhibitor,,,35 µM
O=C(O)CCn1c(=O)oc2cc(Cl)c(Cl)cc21,"Voltage-gated inwardly rectifying potassium channel KCNH2 (KCNH2, Homo sapiens, UniProt Q12809)","ion current, inhibitor",,,> 63.1 µM
CC(C)CN(CCCC[C@H](NC(=O)[C@H](CCCN1CCOCC1)NC(=O)[C@@H](NC(=O)[C@H](Cc1ccccc1)NC(=O)c1ccc(C(C)(C)C)cc1)C(C)C)C(=O)N[C@@H](CO)C(N)=O)C1CC2CCC1C2 (some centres unmarked),"Chromobox protein homolog 7 (Homo sapiens, UniProt O95931)","ligand displacement, TR-FRET",,,1.7 µM
C[C@H](N)C(=O)N[C@@H](CS)C(=O)N[C@@H](CC(N)=O)C(=O)N[C@@H](Cc1ccccc1)C(=O)N[C@@H](CO)C(=O)N[C@H](C(=O)N[C@@H](Cc1ccccc1)C(=O)N[C@@H](CS)C(=O)N[C@@H](CCCNC(=N)N)C(N)=O)[C@@H](C)O,"Pyruvate kinase PKM (PKM, Homo sapiens, UniProt P14618)","enzyme activity, inhibitor, fluorometric",,"2 h, 37 °C, enzyme 500 nM",229 µM
O=S(=O)(N/N=C/c1ccc(OS(=O)(=O)c2ccccc2)cc1)c1ccc(Cl)cc1,CA2,"enzyme activity, inhibitor, absorbance",,,0.362 µM
O=C(c1cc(Cc2n[nH]c(=O)c3ccccc23)ccc1F)N1CC(CNC2CC2)C1,"Protein mono-ADP-ribosyltransferase PARP11 (PARP11, Homo sapiens, UniProt Q9NR21)","enzyme activity, inhibitor",,,> 10 µM
CC(C)Oc1c(NC(=O)c2ccc(NC(=O)C(CC(N)=O)NC(=O)c3cc(F)c(N=Nc4c(F)cccc4F)c(F)c3)cc2)ccc(C(=O)NN=Cc2ccc(C(=O)O)cc2)c1O (centres unmarked),"DNA gyrase (gyrA/gyrB, Escherichia coli, UniProt P0AES4+P0AES6)","DNA supercoiling, inhibitor",,"30 min, 37 °C, after 1 h irradiation at 365 nm",> 25 µM
O=C(Nc1ccc(-c2ccccc2)cc1)N[C@H]1[C@H]([C@H](O)[C@H](O)CO)OC(C(=O)O)=C[C@@H]1O,"Sialidase-3 (Homo sapiens, UniProt Q9UQ49)","enzyme activity, inhibitor",,,> 500 µM
COc1ccc(S(=O)(=O)Oc2ccc(/C=N/NS(=O)(=O)c3cc(Cl)ccc3Cl)cc2)cc1,CA2,"enzyme activity, inhibitor, absorbance",,,0.106 µM
Nc1ccn(C2OC(COP(=O)(O)OP(=O)(O)OP(=O)(O)O)C(O)C2(F)F)c(=O)n1 (centres unmarked),"pyrG (Escherichia coli, UniProt P0A7E5, C268A)",enzyme activity,,"together with: 6.0 mM glutamine, 1.0 mM ATP, 0.20 mM UTP",9.6 ± 0.8 µM
CC[C@H](C)[C@H](NC(=O)[C@H](CCCNC(=N)N)NC(=O)[C@@H](NC(=O)[C@H](CC(N)=O)NC(=O)[C@@H](NC(=O)[C@H](CC(C)C)NC(=O)[C@H](CCCCN)NC(=O)[C@H](CCCNC(=N)N)NC(=O)[C@H](Cc1ccccc1)NC(=O)[C@H](CCC(=O)O)NC(=O)[C@H](CCC(=O)O)NC(=O)[C@H](CCC(=O)O)NC(=O)[C@H](C)NC(=O)[C@@H](N)Cc1ccc(O)cc1)[C@@H](C)O)C(C)C)C(=O)N[C@@H](CCSC)C(=O)N[C@@H](CCCCN)C(=O)O,Mitogen-activated protein kinase 14,"enzyme activity, inhibitor, fluorescence",,pH 7.4,> 200 µM
CC(C)N1CCCCC1C(=O)NC(Cc1ccc(-c2ccccc2)cc1)B(O)O (centres unmarked),"PSMB6/PSMB7 (Homo sapiens, UniProt P28072+Q99436)","β1c caspase-like activity, inhibitor",,"constitutive proteasome, together with: Z-LLE-AMC",> 10 µM
CC(C)C[C@H](NC(=O)[C@H]1O[C@@H]1C(=O)O)C(=O)NCCCCN=C(N)N,"Pro-cathepsin H (Homo sapiens, UniProt P09668)","enzyme activity, inhibitor",,,0.0434 µM
Cc1ccc2c(n1)c(-c1cccc(S(C)(=O)=O)c1)c(C)n2C/C(F)=C/CN,"Cytochrome P450 2B6 (CYP2B6, Homo sapiens, UniProt P20813)","enzyme activity, inhibitor","human, liver microsomes",,3.4 µM
CC[C@H](C)[C@H](NC(=O)[C@H](CC(C)C)NC(=O)[C@@H]1CCCN1C(=O)[C@H](CCC(=O)O)NC(=O)[C@@H]1CCCN1C(=O)[C@H](CCCNC(=N)N)NC(=O)[C@@H]1CCCN1C(=O)[C@H](CCCNC(=N)N)NC(=O)[C@H](CCC(N)=O)NC(=O)[C@H](CCCCN)NC(=O)[C@@H]1CCCN1C(=O)[C@H](C)NC(=O)[C@@H](N)Cc1ccc(O)cc1)C(=O)N[C@H](C(=O)N[C@@H](C)C(=O)N[C@H](C(=O)O)[C@@H](C)O)[C@@H](C)CC,Mitogen-activated protein kinase 14,"enzyme activity, inhibitor, fluorescence",,pH 7.4,179 µM
O=C(O)C(/C=C/c1ccc(Cl)cc1)=N\Nc1nc(-c2ccc(Cl)cc2)cs1,"Cholinesterase (BCHE, Equus caballus, UniProt P81908)","enzyme activity, inhibitor",,,5.01 µM
CC[C@H](C)[C@H](NC(=O)[C@H](CCCCN)NC(=O)[C@H](CC(C)C)NC(=O)CNC(=O)[C@@H]1CCCN1C(=O)[C@H](CC(N)=O)NC(=O)[C@H](CCCNC(=N)N)NC(=O)[C@H](CCCCN)NC(=O)[C@H](CCCCN)NC(=O)CNC(=O)[C@H](CCCCN)NC(=O)[C@H](CO)NC(=O)[C@H](C)NC(=O)[C@@H](N)Cc1ccc(O)cc1)C(=O)N1CCC[C@H]1C(=O)N[C@@H](CCCCN)C(=O)O,Mitogen-activated protein kinase 14,"enzyme activity, inhibitor, fluorescence",,pH 7.4,9.85 µM
CCN1CCC[C@@H]1CNC(=O)c1cc([N+](=O)[O-])c(N(C)C)cc1OC,"uncharacterized protein (Anopheles gambiae, UniProt Q7QFG0)","enzyme activity, inhibitor, Ellman",,"pH 7.4, 30 °C, together with: 1 mM acetylthiocholine",51 µM
CC(C)C[C@H](NC(=O)[C@H](CCCNC(=N)N)NC(=O)[C@H](CCCNC(=N)N)NC(=O)CNC(=O)[C@H](C)NC(=O)[C@@H](N)Cc1ccc(O)cc1)C(=O)N[C@@H](CCCCN)C(=O)NCC(=O)N[C@@H](C)C(=O)N[C@@H](CCCNC(=N)N)C(=O)N[C@@H](CCCNC(=N)N)C(=O)N[C@@H](CC(C)C)C(=O)N[C@@H](CCCCN)C(=O)N[C@@H](CC(C)C)C(=O)N[C@@H](CO)C(=O)N1CCC[C@H]1C(=O)O,Mitogen-activated protein kinase 14,"enzyme activity, inhibitor, fluorescence",,pH 7.4,11.5 µM
C=CC(=O)N1[C@H](c2ccc3c(c2)OCO3)c2[nH]c3ccccc3c2C[C@H]1C(=O)N1CCOCC1,"Hepatocyte nuclear factor 3-alpha (FOXA1, Homo sapiens, UniProt P55317)","probe reactivity, gel-based ABPP",purified protein,together with: oligonucleotide,8 µM
CCCC[C@H](NC(=O)[C@@H](NC(=O)[C@@H](N)Cc1ccc(O)cc1)C(C)C)C(=O)NCC(=O)N[C@@H](Cc1c[nH]cn1)C(=O)N[C@H](Cc1ccc2ccccc2c1)C(=O)N[C@@H](CCCNC(=N)N)C(=O)N[C@H](Cc1c[nH]c2ccccc12)C(=O)N[C@@H](CC(=O)O)C(=O)N[C@@H](CCCNC(=N)N)C(=O)N[C@@H](Cc1ccccc1)C(=O)NCC(=O)O,"Melanocortin receptor 4 (MC4R, Homo sapiens, UniProt P32245)","antagonist, split-luciferase cAMP sensor",,"12 min, together with: 70 nM α-MSH (EC90)",0.0637 µM and 0.0603 µM
CC[C@H](C)[C@H](NC(=O)[C@H](CC(C)C)NC(=O)[C@H](C)NC(=O)[C@H](CCC(=O)O)NC(=O)[C@H](C)NC(=O)[C@H](CCCNC(=N)N)NC(=O)[C@@H]1CCCN1C(=O)[C@H](CCCNC(=N)N)NC(=O)[C@H](CCC(N)=O)NC(=O)[C@H](CCCCN)NC(=O)[C@@H]1CCCN1C(=O)[C@H](C)NC(=O)[C@@H](N)Cc1ccc(O)cc1)C(=O)N[C@H](C(=O)N1CCC[C@H]1C(=O)N[C@H](C(=O)O)[C@@H](C)O)[C@@H](C)CC,Mitogen-activated protein kinase 14,"enzyme activity, inhibitor, fluorescence",,pH 7.4,391 µM
O=C(Nc1cccnc1)c1cccs1,"Nicotinamide phosphoribosyltransferase (NAMPT, Homo sapiens, UniProt P43490)","enzyme activity, inhibitor, fluorescence",,,27 µM
CC[C@H](C)[C@H](NC(=O)[C@H](Cc1ccccc1)NC(=O)[C@H](CC(C)C)NC(=O)[C@@H]1CCCN1C(=O)[C@H](CCC(=O)O)NC(=O)[C@@H]1CCCN1C(=O)[C@H](CCCNC(=N)N)NC(=O)[C@H](Cc1c[nH]cn1)NC(=O)[C@H](CCCNC(=N)N)NC(=O)[C@H](Cc1ccccc1)NC(=O)[C@H](CCCCN)NC(=O)[C@H](CCCCN)NC(=O)[C@H](C)NC(=O)[C@@H](N)Cc1ccc(O)cc1)C(=O)N1CCC[C@H]1C(=O)N1CCC[C@H]1C(=O)O,Mitogen-activated protein kinase 14,"enzyme activity, inhibitor, fluorescence",,pH 7.4,5.1 µM
CCC1c2ccsc2CCN1C(=O)Cn1cc(CC2NC(=O)NC2=O)nn1 (centres unmarked),CTSL,"enzyme activity, inhibitor, FRET",,,> 100 µM
Cc1ccc(CNC(=O)c2ccn3c(-c4ccc(C#N)cc4)cnc3c2)cn1,"Cytochrome P450 2D6 (CYP2D6, Homo sapiens, UniProt P10635)","enzyme activity, inhibitor",,,> 10 µM
Cn1c(=O)c(-c2ccccc2Cl)cc2cnc(Nc3cccc(S(C)(=O)=O)c3)nc21,"Calmodulin-domain protein kinase 1, putative (Cryptosporidium parvum, UniProt A3FQ16)","kinase activity, inhibitor",,together with: 10 µM ATP,0.019 ± 0.002 µM
CNC(=O)C[C@H](Cc1ccccc1)NC(=O)[C@@H](Cc1ccc(Cl)cc1Cl)NC(=O)[C@H](N)Cc1ccccc1C#N,CTSL,"enzyme activity, inhibitor",,,> 10 µM
CN(C)CCCN1C(=O)CSC1c1ccccc1Cl (centres unmarked),"uncharacterized protein (Apis mellifera, UniProt A0A7M6W5G5)","enzyme activity, inhibitor, Ellman",,together with: 1 mM acetylthiocholine,22 µM
CN(C)C(=O)On1nnc2ccccc21,CTSL,"enzyme activity, inhibitor, FRET",,,> 100 µM
